Measured values gathered from unrelated publications.
Parts stem from different laboratories: compare values within a part only. Substitutions count along the parent as printed.

Series 1
Target: Histone acetyltransferase KAT6A, both winged helices, GST fusion (KAT6A, Homo sapiens, UniProt Q92794, residues 1-181)
Technique: protein binding microarray
Form: double-stranded DNA, one strand shown
Medium: in vitro
Tested at: not given
Notes: 8-mer, flanks averaged, mean of 2 arrays, mostly near background
Baseline: not given
Reading: higher = stronger binding
Measurement: E-score
Construct (chain): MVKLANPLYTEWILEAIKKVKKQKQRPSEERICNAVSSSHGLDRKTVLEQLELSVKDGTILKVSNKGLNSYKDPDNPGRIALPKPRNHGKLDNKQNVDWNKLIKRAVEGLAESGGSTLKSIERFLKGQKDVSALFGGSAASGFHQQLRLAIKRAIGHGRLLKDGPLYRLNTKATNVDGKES
CATGAATC: 0.0184
TGAGGGAA: -0.115
ACGAATTC: -0.0531
CGGATCTC: 0.0815
ACTGGCGG: 0.131
AGTGGAAG: -0.121
AGCCCAGA: -0.242
ACGGCGCA: 0.298
AGCTTGAT: -0.0485
TGTAAAAA: -0.186
ATTGAGCG: 0.024
ACTAGGGG: -0.152
ATGGAGCA: -0.05
GCTAAGGA: -0.0307
CTCTAGCC: -0.0233
TGTTAAAA: -0.0328
TCTTGACA: -0.156

Series 2
Target: RNA binding protein fox-1 homolog 2, RRM domain, GST-SBP tag (RBFOX2, Homo sapiens, UniProt O43251-10, residues 100-194)
Technique: RNA Bind-n-Seq
Form: RNA
Medium: in vitro
Tested at: 365 nM
Notes: natural RNA segment, single round, ends assumed
Baseline: no-protein control
Reading: higher = stronger binding
Measurement: RBNS enrichment (R)
Constant ends, left off below: GGGAGUUCUACAGUCCGACGAUC … UGGAAUUCUCGGGUGCCAA
Target sequence (chain): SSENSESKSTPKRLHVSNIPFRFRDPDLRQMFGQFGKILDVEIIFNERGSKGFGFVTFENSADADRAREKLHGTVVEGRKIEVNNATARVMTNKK
CGAGAGAUAGAAAAUCUUUAUCUGUCCUUCUUGCUCCCUGACAUUAAUAAAUUUUUCUGAAGUCUCAAAGUCUUCUCAACAGUCAAGAAACCAAGCAAGCAAGCAAGAGC: 0.754
AGUAAAGCCUUCAUAGCGAGUGGAUGGGAUGAGGUGUGGCACACAUCCCCGGGAGUGCUCGUGGGAAGUGGCCUCCACAGAAGGUAGUCAUCUUCAUCCUCUAGGACAUU: 0.374
UGUCCAAUGGAUGAAGUUGAUUCAUAUUGCAUCAUAGUGUGUCAUAUUUAAGCUCACAUUAGAGUUAAGUUGUAUUUUAUGUUAUUUAUAGAUCUGAAUUUUCUAUGUUU: 0.821
UCUGAUAGGCACAGUCCAGCCCAGUCUAGCACCACCUUUUAUGGUAGUUGAUCACUCUGAGGAGGUGGGUAGCAAGAUGAAUUAGGAGGUCAAGGUCACUGAGAGGAAUU: 0.324
UGUCCCUGGCAAGUGCCUGGUAAAGGACACCGAGGCUGCUGAGCUCUUCCAGCAUGGAGGGUACCAUGGCCCGUAGGAGCCUGGGGUUCCUAGCAAACGGGAGGAAACCA: 1.09
UUUCAACAUGCUUUCAAUCUGUCAACACAAAGGAAAAAAAAGGCAGUGUUUAAAGAUUGUUGAUUUUUUUCCUGGGGAUAAUCUAUAUUAUACUGACUUUAUAUUAAUUA: 0.935
GACUGGCAGCUUUUAUUUCAGUAUUAGCACAGCGUCUUGCCAGUGUUGGAGGCCAUGUAUUAUUUCAGUUCAACUGGAUGAAAUGUUAAAUAAACUCAGAAUGAAAAUAA: 1.05
GCCCUGUCCUUCUCAUGGACUCCAUUCAUGUCUGCUCCUCACUAACAGACUUGGGUUUUCCCAAUACCUGACUAUACUUUUGUGAUUCAGUUCAGCUUAAAGAACGCCAG: 0.635

Series 3
Target: ATP-dependent RNA helicase DDX3X, helicase core (DDX3X, Homo sapiens, UniProt O00571, residues 132-607)
UniProt O00571, sequence (132-607, looked up): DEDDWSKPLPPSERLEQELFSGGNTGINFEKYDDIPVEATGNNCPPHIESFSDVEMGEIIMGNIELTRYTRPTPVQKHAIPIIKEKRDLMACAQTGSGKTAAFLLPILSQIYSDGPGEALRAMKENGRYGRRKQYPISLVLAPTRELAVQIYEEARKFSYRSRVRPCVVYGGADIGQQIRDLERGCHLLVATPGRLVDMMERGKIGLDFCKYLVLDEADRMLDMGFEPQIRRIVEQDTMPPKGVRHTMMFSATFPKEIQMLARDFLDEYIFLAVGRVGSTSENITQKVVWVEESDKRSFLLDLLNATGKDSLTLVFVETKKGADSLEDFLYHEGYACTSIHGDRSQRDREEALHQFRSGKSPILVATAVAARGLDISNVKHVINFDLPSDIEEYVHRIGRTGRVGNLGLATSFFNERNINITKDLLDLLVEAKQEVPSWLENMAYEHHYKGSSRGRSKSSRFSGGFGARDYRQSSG
Technique: RNA Bind-n-Seq
Form: RNA
Medium: in vitro
Tested at: 90 pmol
Notes: 4-mer, random 30-nt RNA, single round
Together with: 3 µM DMDA-PatA, 2 mM ADP, 2 mM phosphate
Baseline: input library
Reading: higher = stronger binding
Measurement: 4-mer enrichment
AGGC: 1.08 fold
GAGU: 1.44 fold
UCAG: 0.98 fold
AAGU: 1.23 fold
GUCU: 0.826 fold
AAUG: 1.04 fold
CAGA: 0.979 fold
GCUA: 0.794 fold
GAAA: 1.12 fold
AUAA: 1.1 fold
ACAA: 1.08 fold
UAGA: 0.995 fold
UGCG: 1.05 fold
CGUG: 1.13 fold
GGAC: 0.893 fold
CUGC: 0.838 fold

Series 4
Target: Prothrombin, mature alpha-thrombin (F2, Homo sapiens, UniProt P00734)
Technique: aptamer microarray, sandwich
Form: DNA with 2'F-ANA
Medium: in vitro
Tested at: 200 nM
Notes: whole 15-mer aptamer, many near background
Together with: Cy3 exosite-II aptamer, 400 nM
Reading: higher = stronger binding
Measurement: mean fluorescence intensity
Sequence: GGTTGGTGTGGTTGG
2'F-ANA at 1 2 3 13 14 15: 67.2 a.u.
2'F-ANA at 1 2 3 5 7 9 10 11 14: 52.8 a.u.
2'F-ANA at 2 4 5 6 9 10 12 13 14 15: 48 a.u.
2'F-ANA at 3 6 8 10 13 14 15: 363 a.u.
2'F-ANA at 1 4 8 10 11 13: 50.4 a.u.
2'F-ANA at 1 2 3 5 9 10 11 12 15: 52.3 a.u.
2'F-ANA at 1 2 3 4 6 7 11 12 13 15: 205 a.u.
2'F-ANA at 1 3 7 10 11 15: 79 a.u.
2'F-ANA at 1 3 5 6 9 11 15: 56.5 a.u.
2'F-ANA at 1 3 4 5 6 8 10 11 12 13: 52.3 a.u.
2'F-ANA at 2 3 4 5 6 11 12: 145 a.u.
2'F-ANA at 3 5 6 11 12 14 15: 56.6 a.u.
2'F-ANA at 1 2 3 8 12: 582 a.u.
2'F-ANA at 3 4 6 7 9 10 13: 220 a.u.
2'F-ANA at 3 6 7 8 10 12 13: 554 a.u.
2'F-ANA at 1 4 7 8 9 10 11 12 13: 54.6 a.u.
2'F-ANA at 3 4 7 9 11 13 14 15: 277 a.u.
2'F-ANA at 3 6 7 10 12 14 15: 411 a.u.
2'F-ANA at 2 3 7 8 15: 974 a.u.
2'F-ANA at 1 2 3 4 5 8 12 14: 49.8 a.u.
2'F-ANA at 1 2 4 7 9 11 12 14: 59.8 a.u.
2'F-ANA at 2 4 5 10 11 14 15: 47.1 a.u.

Series 5
Target: CCND2, cyclin fold, Cln2 fusion (human)
Technique: yeast growth competition, sequencing
Medium: yeast
Notes: weak parent motif
Baseline: not given
Reading: higher = stronger binding
Measurement: normalised enrichment score
Starting sequence: SCAPER docking peptide (human); SNARRSLNFGGST; partner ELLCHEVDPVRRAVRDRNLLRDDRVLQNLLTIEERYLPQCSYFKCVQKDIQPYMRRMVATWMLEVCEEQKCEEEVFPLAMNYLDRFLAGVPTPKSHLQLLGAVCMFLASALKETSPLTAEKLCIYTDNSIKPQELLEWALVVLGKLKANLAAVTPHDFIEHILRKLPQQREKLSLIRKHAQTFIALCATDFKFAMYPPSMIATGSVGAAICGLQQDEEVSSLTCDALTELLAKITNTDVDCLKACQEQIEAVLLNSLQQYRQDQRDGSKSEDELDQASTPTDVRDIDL
SNARRSLNFGGSI [T13I]: 0.592
SNARRSQNFGGST [L7Q]: 0.504
SDARRSLNFGGST [N2D]: 0.179
SNARRSLDFGGST [N8D]: 0.538
SNARRSLNFGGSQ [T13Q]: 0.498
SNARRSFNFGGST [L7F]: -0.0865
SNARRSLTFGGST [N8T]: 0.574
SNARRSLNFGGSL [T13L]: 0.634
SNARRSLEFGGST [N8E]: 0.28
SNARRSLNFGGGT [S12G]: 0.578
GNARRSLNFGGST [S1G]: 0.126
SVARRSLNFGGST [N2V]: 0.324
SNARRSLNFGGSA [T13A]: 0.36
SNARRSLNFGGSH [T13H]: 0.258
SNARRSWNFGGST [L7W]: -0.353
SNWRRSLNFGGST [A3W]: 0.0255
SNARRSMNFGGST [L7M]: 0.386
SNARRSLNFGGSS [T13S]: 0.34
SNARRSYNFGGST [L7Y]: 0.221
SNARRSLNFGTST [G11T]: 0.744
SGARRSLNFGGST [N2G]: 0.757
SNARRSLNFGGSK [T13K]: 0.45

Excerpt of the above (series 5):
SGARRSLNFGGST [N2G]: 0.757
SNARRSYNFGGST [L7Y]: 0.221
SNARRSLNFGGSS [T13S]: 0.34
SNARRSLNFGGSL [T13L]: 0.634
SNARRSLTFGGST [N8T]: 0.574
SNARRSLNFGGSA [T13A]: 0.36
